Published values from different studies.
Each line is one published result; not all experiments were run side by side. ± gives the spread as reported. Non-standard residues stand in square brackets, D forms with d. Bridges are numbered along the chain shown (N, C = ends). Where no end group is shown, it is not given here. No end group written: not given here.
Rbpj: Rbpj 53-474 (Mus musculus, UniProt P31266)
UniProt P31266, sequence (whole entry, looked up): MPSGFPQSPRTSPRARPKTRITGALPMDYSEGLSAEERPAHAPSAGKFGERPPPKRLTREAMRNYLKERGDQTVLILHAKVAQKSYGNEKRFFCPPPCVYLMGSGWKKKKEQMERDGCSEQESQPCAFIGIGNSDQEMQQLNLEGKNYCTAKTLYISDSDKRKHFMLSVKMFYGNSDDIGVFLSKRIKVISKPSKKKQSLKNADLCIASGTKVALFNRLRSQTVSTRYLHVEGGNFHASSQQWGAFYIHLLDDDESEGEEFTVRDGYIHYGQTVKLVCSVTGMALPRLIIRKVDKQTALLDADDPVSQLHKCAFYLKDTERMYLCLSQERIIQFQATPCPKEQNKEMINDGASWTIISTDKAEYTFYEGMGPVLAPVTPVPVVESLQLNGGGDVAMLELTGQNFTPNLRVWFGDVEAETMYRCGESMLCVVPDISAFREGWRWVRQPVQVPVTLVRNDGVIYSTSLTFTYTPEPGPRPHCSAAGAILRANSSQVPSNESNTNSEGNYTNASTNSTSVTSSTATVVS
B1: ATG3 residues 24-88, 192-314 (Homo sapiens, UniProt Q9NT62); chain KESKFKETGVITPEEFVAAGDHLVHHCPTWQWATGEELKVKAYLPTGKQFLVTKNVPCYKRCKQMDAILQTRTYDLYITYDKYYQTPRLWLFGYDEQRQPLTVEHMYEDISQDHVKKTVTIENHPHLPPPPMCSVHPCRHAEVMKKIIETVAEGGGELGVHMYLLIFLKFVQAVIPTIEYDYTRHFTM
B2: mmoB core del2-33/D36C (Methylococcus capsulatus, UniProt P18797); IAEDANS label; sequence looked up; chain MESCTVVLVLKKSDEINTFIEEILLTDYKKNVNPTVNVEDRAGYWWIKANGKIEVDCDEISELLGRQFNVYDFLVDVSSTIGRAYTLGNKFTITSELMGLDRKLEDYHA
B3: GSTP1 3-210 (Homo sapiens, UniProt P09211); QSY 35 label; chain PYTVVYFPVRGRCAALRMLLADQGQSWKEEVVTVETWQEGSLKASCLYGQLPKFQDGDLTLYQSNTILRHLGRTLGLYGKDQQEAALVDMVNDGVEDLRCKYISLIYTNYEAGKDDYVKALPGQLKPFETLLSQNQGGKTFIVGDQISFADYNLLDLLLIHEVLAPGCLDAFPLLSAYVGRLSARPKLKAFLASPEYVNLPINGNGKQ
B4: L3MBTL3 1-197 (Homo sapiens, UniProt Q96JM7-2); sequence looked up; chain MTESASSTSGQEFDVFSVMDWKDGVGTLPGSDLKFRVNEFGALEVITDENEMENVKKATATTTWMVPTAQEVFSEKTGMPFRLKDPVKVEGLQFCENCCQYGNVDECLSGGNYCSQNCARHIKDKDQKEERDVEEDNEEEDPKCSRKKKPKLSLKADTKEDGEERDDEMENKQDVRILRGSQRARRKRRGDSAVLKQ
B5: adrenodoxin (Homo sapiens, UniProt P10109); RED dye on amines; sequence looked up; chain SSSEDKITVHFINRDGETLTTKGKVGDSLLDVVVENNLDIDGFGACEGTLACSTCHLIFEDHIYEKLDAITDEENDMLDLAYGLTDRSRLGCQICLTKSMDNMTVRVPETVADARQSIDVGKTS
UniProt Q4G0S4, sequence (whole entry, looked up): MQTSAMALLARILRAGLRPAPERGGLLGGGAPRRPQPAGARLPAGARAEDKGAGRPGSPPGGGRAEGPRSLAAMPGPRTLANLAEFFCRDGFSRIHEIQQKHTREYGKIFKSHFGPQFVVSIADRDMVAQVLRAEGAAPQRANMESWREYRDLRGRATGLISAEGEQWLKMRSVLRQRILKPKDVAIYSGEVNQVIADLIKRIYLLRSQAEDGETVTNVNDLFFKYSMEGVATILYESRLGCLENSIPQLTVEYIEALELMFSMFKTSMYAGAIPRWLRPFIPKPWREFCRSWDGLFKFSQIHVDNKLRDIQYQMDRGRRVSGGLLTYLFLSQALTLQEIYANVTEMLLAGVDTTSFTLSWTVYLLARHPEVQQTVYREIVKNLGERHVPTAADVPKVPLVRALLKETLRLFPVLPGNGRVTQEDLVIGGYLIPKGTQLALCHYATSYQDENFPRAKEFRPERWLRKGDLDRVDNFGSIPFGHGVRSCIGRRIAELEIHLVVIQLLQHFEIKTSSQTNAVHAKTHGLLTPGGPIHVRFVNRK
UniProt P23458, sequence (whole entry, looked up): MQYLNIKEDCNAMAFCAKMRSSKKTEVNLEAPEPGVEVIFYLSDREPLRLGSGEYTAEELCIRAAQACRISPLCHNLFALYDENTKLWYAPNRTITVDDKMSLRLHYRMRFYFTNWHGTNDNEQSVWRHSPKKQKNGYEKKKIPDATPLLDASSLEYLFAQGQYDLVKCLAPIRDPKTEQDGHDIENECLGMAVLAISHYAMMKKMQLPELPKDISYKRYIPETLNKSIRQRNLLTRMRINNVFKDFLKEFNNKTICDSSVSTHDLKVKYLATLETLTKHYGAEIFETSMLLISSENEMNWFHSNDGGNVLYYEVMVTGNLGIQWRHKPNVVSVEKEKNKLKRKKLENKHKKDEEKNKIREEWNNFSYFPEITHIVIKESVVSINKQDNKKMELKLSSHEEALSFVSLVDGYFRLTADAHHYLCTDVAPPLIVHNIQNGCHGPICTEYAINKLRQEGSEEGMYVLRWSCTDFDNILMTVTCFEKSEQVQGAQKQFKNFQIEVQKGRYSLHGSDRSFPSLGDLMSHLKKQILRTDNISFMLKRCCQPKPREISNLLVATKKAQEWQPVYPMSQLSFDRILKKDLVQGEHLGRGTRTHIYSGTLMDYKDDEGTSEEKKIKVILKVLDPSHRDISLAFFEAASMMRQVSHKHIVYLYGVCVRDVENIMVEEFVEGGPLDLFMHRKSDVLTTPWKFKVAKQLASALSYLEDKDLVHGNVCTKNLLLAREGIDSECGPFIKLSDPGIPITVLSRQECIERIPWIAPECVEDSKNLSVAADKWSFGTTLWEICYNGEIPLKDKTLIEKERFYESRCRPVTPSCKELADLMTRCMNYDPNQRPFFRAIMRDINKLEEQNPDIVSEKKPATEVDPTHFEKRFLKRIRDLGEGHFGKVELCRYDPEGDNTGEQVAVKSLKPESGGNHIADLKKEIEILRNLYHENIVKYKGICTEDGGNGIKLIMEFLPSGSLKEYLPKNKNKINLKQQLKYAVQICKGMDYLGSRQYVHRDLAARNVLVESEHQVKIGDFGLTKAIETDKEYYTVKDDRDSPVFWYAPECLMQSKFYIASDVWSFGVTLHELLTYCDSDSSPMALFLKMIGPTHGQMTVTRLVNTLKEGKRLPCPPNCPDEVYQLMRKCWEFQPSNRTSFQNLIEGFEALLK
UniProt O95166, sequence (whole entry, looked up): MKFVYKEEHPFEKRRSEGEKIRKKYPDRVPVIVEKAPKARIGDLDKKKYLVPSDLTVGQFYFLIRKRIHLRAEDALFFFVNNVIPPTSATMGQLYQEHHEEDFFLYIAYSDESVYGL
UniProt P21784, sequence (whole entry, looked up): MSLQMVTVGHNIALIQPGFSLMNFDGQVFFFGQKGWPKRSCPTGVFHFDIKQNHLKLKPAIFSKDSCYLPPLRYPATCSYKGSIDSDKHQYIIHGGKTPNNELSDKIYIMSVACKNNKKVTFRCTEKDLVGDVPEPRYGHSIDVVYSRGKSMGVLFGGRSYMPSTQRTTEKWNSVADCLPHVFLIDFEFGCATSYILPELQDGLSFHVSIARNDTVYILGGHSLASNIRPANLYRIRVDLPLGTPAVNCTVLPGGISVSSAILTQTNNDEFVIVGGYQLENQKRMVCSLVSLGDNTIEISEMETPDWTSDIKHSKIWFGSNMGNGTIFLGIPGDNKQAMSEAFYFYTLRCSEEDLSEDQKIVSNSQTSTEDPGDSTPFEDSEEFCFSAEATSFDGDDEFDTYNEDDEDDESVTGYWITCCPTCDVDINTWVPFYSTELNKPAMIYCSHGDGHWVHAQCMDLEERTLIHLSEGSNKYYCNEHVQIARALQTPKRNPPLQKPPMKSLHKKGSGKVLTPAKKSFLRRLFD
UniProt O15111, sequence (whole entry, unmodified, looked up): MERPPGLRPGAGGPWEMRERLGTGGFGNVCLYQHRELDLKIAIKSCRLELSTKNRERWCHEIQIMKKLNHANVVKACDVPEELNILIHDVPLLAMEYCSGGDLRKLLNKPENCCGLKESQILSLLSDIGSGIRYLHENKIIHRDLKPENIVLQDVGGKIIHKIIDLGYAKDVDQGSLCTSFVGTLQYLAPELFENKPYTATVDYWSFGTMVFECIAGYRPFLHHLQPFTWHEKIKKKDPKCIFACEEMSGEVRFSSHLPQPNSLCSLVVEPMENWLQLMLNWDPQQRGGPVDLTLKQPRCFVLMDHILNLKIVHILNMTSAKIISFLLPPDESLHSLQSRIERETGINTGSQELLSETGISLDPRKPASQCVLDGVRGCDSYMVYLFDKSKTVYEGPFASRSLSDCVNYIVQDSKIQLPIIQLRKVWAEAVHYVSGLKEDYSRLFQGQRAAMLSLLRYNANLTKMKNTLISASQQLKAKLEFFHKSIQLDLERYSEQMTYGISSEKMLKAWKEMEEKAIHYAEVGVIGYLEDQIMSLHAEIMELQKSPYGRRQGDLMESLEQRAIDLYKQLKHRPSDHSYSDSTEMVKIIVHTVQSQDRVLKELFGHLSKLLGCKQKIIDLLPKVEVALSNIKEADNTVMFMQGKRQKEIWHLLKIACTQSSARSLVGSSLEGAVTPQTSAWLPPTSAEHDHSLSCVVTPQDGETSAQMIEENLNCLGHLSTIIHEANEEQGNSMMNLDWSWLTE
UniProt P30041, sequence (whole entry, looked up): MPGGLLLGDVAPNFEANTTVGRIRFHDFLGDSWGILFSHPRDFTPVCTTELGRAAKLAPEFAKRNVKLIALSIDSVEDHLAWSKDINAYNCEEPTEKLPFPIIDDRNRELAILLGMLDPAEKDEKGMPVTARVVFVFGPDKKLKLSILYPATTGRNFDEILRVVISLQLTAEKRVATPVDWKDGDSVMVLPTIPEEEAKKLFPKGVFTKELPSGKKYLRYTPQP
UniProt O60656, sequence (whole entry, looked up): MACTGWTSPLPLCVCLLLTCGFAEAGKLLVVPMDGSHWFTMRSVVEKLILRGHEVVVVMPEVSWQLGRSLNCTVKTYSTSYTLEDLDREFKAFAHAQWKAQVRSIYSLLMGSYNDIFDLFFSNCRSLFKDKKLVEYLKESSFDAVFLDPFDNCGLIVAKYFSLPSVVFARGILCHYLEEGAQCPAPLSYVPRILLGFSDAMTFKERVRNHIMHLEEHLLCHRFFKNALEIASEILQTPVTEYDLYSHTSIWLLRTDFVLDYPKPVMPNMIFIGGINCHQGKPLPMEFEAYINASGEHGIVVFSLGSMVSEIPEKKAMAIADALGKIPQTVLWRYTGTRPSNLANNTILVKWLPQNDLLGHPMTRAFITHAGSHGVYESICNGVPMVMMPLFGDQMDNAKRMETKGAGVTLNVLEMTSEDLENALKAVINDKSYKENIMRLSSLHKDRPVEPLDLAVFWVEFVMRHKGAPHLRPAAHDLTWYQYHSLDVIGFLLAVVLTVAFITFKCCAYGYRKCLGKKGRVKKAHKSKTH
UniProt P83916, sequence (whole entry, looked up): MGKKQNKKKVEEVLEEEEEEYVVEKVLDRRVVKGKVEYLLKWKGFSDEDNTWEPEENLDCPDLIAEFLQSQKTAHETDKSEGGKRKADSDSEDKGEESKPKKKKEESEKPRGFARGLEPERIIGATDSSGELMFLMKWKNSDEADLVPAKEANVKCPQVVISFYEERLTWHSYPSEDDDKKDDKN

Molecule	target or system	assay	test system	conditions	measurement	result
{FAM-Ahx}-CRVLRSGSC-OH (CRV peptide; disulfide 1-9; cyclic, N-terminal carboxyfluorescein, aminohexanoic linker; FAM = carboxyfluorescein; Ahx = NCCCCCC(=O)O)	RXRB (Homo sapiens, UniProt P28702)	SPR	peptide	equilibrium not reached	Kd	> 1000 µM
{5,6‑carboxyfluorescein}-ELRAIIKKIWKRTSMKLLDQVV (CACNA1C 1614-1635 (Oryctolagus cuniculus); N-terminal fluorescein)	Calm1 (Rattus norvegicus, UniProt P0DP29)	fluorescence polarisation	peptide	pH 7.4, 22 °C, 100 mM KCl, without Ca2+	Kd	85 ± 35 µM
B1 (ATG3 residues 24-88, 192-314)	GABARAP 1-116 (Homo sapiens, UniProt O95166)	NMR	–	–	Kd	1300 ± 300 µM
ART[Lys(Me3)]QTARKSTG (histone H3 peptide; K4me3; Lys(Me3) = C[N+](C)(C)CCCC[C@H](N)C(=O)O)	Rag2 414-487 (Mus musculus, UniProt P21784)	ITC	peptide	–	Kd	17.8 µM
B2 (mmoB core del2-33/D36C)	mmoX/mmoY/mmoZ hydroxylase (Methylococcus capsulatus)	fluorescence polarisation	–	–	Kd	2.67 µM
UGT1A9 (Homo sapiens, UniProt O60656)	O=c1cc(-c2ccccc2)oc2cc(O)c(O)cc12	steady-state kinetics	–	pH 7.4, 37 °C	Vmax	0.00409 µmol/min/mg
B3 (GSTP1 3-210)	PRDX6 1-224, Alexa 546 label (Homo sapiens, UniProt P30041)	FRET	–	pH 7.4, apparent, added: GSH 1 mM	Kd	0.051 µM
PDCD1 fragment (Homo sapiens)	toripalimab IgG4	SPR	–	–	Kd	0.000238 µM
B4 (L3MBTL3 1-197)	Rbpj	ITC	–	pH 6.5, 25 °C, NaCl 150 mM, one site model	Kd	1.5 µM
B5 (adrenodoxin)	CYP27C1 81-542 (Homo sapiens, UniProt Q4G0S4)	MST	–	pH 7.4, 25 °C, oxidized, single-site model	Kd	0.22 µM
CLSTAADMQGVVTDGMASGLDKDYLKPDD (azu residues 50-77)	TP63 DBD 127-323 (Homo sapiens)	atomic force spectroscopy	peptide	pH 7.5, NaCl 150 mM	Kd	0.79 µM
MENVKKATRTTTWMVPTAQ (L3MBTL3 52-70 A60R (Homo sapiens, UniProt Q96JM7-2); sequence looked up)	Rbpj	ITC	peptide	pH 6.5, 25 °C, NaCl 150 mM, one site model	Kd	4.2 µM
ARTKQTARKSTGGK (histone H3 2-15 (Homo sapiens, UniProt P68431); K9me3; sequence looked up)	CBX1, C-terminal Atto532, amide (Homo sapiens, UniProt P83916)	MST	peptide	–	Kd	1.4 ± 0.3 µM
rhodamine-LYGSDPQEELII (Cdh5 773-784 (Mus musculus); reading uncertain; N-terminal rhodamine; rhodamine = not defined here)	Pard3 581-689 R609A (Mus musculus, UniProt Q99NH2)	fluorescence polarisation	peptide	100 nM, pH 7.4, 298 K, NaCl 100 mM	Kd	25 µM
chlD AAA+ domain plus polyproline region (Synechocystis) (sequence not shown)	chlI C244S, Alexa Fluor 488 label (Synechocystis)	MST	–	pH 7.8, 20 °C, added: MgADP 3 mM	Kd	0.183 ± 0.0259 µM
KWDTANNPLYKEATSTFTNITYRGT (ITGB3 764-788 (Homo sapiens, UniProt P05106); sequence looked up)	Myom1 IgC2 domain 4 (Mus musculus)	ITC	peptide	pH 6.8, 25 °C, NaCl 50 mM	Kd	10.7 ± 9.9 µM
NFKBIA peptide to 317 C308L, C-terminal amide (Homo sapiens)	CHUK 10-667 S176E/S180E (Homo sapiens, UniProt O15111)	ITC	–	–	Kd	0.42 µM
KTLMGNPWFQRAKMPRALDFSGHTHPVATFQPSRPESVND (IFNLR1 250-289 (Homo sapiens, UniProt Q8IU57); sequence looked up)	JAK1 35-559 (Homo sapiens, UniProt P23458)	BLI	peptide	apparent, effective Kd	Kd	1.57 µM

For quick reference, copied from above:
Molecule	target or system	assay	test system	conditions	measurement	result
B3 (GSTP1 3-210)	PRDX6 1-224, Alexa 546 label (Homo sapiens, UniProt P30041)	FRET	–	pH 7.4, apparent, added: GSH 1 mM	Kd	0.051 µM
{5,6‑carboxyfluorescein}-ELRAIIKKIWKRTSMKLLDQVV (CACNA1C 1614-1635 (Oryctolagus cuniculus); N-terminal fluorescein)	Calm1 (Rattus norvegicus, UniProt P0DP29)	fluorescence polarisation	peptide	pH 7.4, 22 °C, 100 mM KCl, without Ca2+	Kd	85 ± 35 µM
B1 (ATG3 residues 24-88, 192-314)	GABARAP 1-116 (Homo sapiens, UniProt O95166)	NMR	–	–	Kd	1300 ± 300 µM
